Published values from different studies.
Each numbered part is a random draw from the data of one study; scales do not carry over between parts.

Study 1
Target: Sal-like protein 4, full length isoform B (SALL4, Homo sapiens, UniProt Q9UJQ4-2, residues 1-616)
Method: universal PBM
Molecule type: double-stranded DNA, one strand shown
Sample: in vitro
Tested at: not given
Notes: 8-mer, flanks averaged, mean of replicates
Direction: higher = stronger binding
With `GTCCCGTA` the E-score was -0.0571.
`AGTAAGTG` has an E-score of 0.027.
For `GCTGAAGC`, the E-score was -0.118.
With `AATGGCAA` the E-score was 0.156.
The E-score of `TGAATTAA` is reported as 0.291.
For `CCGAAGGA`, the E-score was -0.203.
`AAGTCCAC` has an E-score of -0.221.
With `GGTCCCGA` the E-score was -0.389.
`AGGAATCA` has an E-score of 0.161.
`ATGAGTCA` has an E-score of 0.154.
The E-score of `AGCGTCCA` is reported as -0.203.
`TATGTACA` has an E-score of 0.315.
The E-score of `CTTAGCGC` is reported as -0.261.
With `CATTTTTC` the E-score was 0.295.
`CTCAGGAA` has an E-score of -0.151.
For `ACGAACTG`, the E-score was -0.163.
For `CAAGGTGG`, the E-score was -0.133.

Study 2
Target: Interferon regulatory factor 7, full length, phosphomimetic (IRF7, Homo sapiens, UniProt Q92985, residues 1-503, S471D/S472D/S475D/S476D/S477D/S483D/S484D/S487D)
Method: protein-binding microarray
Molecule type: double-stranded DNA, one strand shown
Sample: in vitro
Tested at: 2200 nM top
Notes: 60-bp whole probe
Together with: salmon DNA 0.4 mg/ml
Baseline: random background probes
Direction: higher = stronger binding
Shared flanks, not repeated: GCCTAGCAC … GTCTTGATTCGCTTGACGCTGCTG
Target sequence (chain): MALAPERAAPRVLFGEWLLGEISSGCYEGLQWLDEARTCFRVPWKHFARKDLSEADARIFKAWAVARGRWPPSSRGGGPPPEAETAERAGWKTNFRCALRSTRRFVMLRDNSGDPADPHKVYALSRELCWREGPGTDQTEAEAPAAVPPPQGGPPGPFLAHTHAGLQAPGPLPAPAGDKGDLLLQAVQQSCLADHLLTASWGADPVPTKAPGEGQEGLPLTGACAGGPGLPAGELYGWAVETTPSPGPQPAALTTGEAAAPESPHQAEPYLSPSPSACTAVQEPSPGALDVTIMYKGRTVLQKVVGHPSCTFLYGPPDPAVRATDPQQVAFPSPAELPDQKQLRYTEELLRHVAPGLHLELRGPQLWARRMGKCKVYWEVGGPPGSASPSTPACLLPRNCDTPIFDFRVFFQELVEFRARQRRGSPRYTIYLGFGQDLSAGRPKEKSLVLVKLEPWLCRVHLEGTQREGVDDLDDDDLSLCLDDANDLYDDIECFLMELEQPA
`TCACCTAACATGCTTCGAACTGTGCTA`: “fitted relative affinity” 1.03 z-score.
Under “fitted relative affinity”, `GACGTTTTCGGTATCGGGACGTGCTAG` is recorded as 7.31 z-score.
`TCACATCTCTCTTAAATACTGTGCTAG`: “fitted relative affinity” 1.36 z-score.
`GACGGACTGTGACTGGGGACGTGCTAG` — result for “fitted relative affinity”: -0.588 z-score.
`GACGATCTCAGTTTCCAGACGTGCTAG`: “fitted relative affinity” 1.61 z-score.
Under “fitted relative affinity”, `TCATTTTCCTACATCAGACTGTGCTAG` is recorded as 3.01 z-score.
For `TTAGATCTCCTTCTCCTTTAGTGCTAG`, “fitted relative affinity” read 1.18 z-score.
`TTAGGTATCTGTCTCGGTTAGTGCTAG`: “fitted relative affinity” 0.847 z-score.
`GACGATATCAGACTGGAGGCGTGCTAG` — result for “fitted relative affinity”: -0.0209 z-score.
Under “fitted relative affinity”, `TTTGGTTTCCTTTTCCTTTAGTGCTAG` is recorded as 8.71 z-score.
For `AACGGTATCCTTCTCCTGACGTGCTAG`, “fitted relative affinity” read 1.09 z-score.
`TATTGTGTCAACTTTCTCTGCGTGCTA` — result for “fitted relative affinity”: 1.05 z-score.
`TCATCAATCATTTTAGTACTGTGCTAG`: “fitted relative affinity” 0.979 z-score.
Under “fitted relative affinity”, `TTAGGTTTCGGGCTCGGTTAGTGCTAG` is recorded as 3.37 z-score.
`TCAGTTTTCTCATTCGTACTGTGCTAG`: “fitted relative affinity” 3.81 z-score.
`TTAGGTTTCGACACTGGATTAGTGCTA`: “fitted relative affinity” 2.27 z-score.
`GACGGTCTCCTTTTCCTGAGGTGCTAG`: “fitted relative affinity” 0.898 z-score.
`GACCGTTTCGGACTGGGGACGTGCTAG`: “fitted relative affinity” 2.27 z-score.
For `TCATCCATGGGTATGGCACTGTGCTAG`, “fitted relative affinity” read 0.0436 z-score.

Study 3
Target: Eukaryotic initiation factor 4A-I (EIF4A1, Homo sapiens, UniProt P60842, residues 1-406, full length assumed)
Chain of UniProt P60842 (whole entry, looked up): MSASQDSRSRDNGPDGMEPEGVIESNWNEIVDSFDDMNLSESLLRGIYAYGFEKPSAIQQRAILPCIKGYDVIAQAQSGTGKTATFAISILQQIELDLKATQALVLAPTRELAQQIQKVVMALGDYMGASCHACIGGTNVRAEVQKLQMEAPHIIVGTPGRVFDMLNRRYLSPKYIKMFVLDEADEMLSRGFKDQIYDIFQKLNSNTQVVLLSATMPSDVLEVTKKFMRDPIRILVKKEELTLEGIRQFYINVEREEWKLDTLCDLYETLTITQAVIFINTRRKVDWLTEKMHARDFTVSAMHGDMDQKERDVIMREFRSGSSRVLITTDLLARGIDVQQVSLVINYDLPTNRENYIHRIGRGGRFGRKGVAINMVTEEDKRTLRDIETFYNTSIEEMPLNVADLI
Method: RNA Bind-n-Seq
Molecule type: RNA
Sample: in vitro
Tested at: 15 pmol
Notes: 4-mer, random 30-nt RNA, single round
Together with: 3 µM RocA, 2 mM AMP-PNP
Baseline: mean of 4-mers
Direction: higher = stronger binding
Under “4-mer enrichment Z-score”, `UACC` is recorded as -1.1.
`UGCG`: “4-mer enrichment Z-score” 0.846.
For `GCUA`, “4-mer enrichment Z-score” read -0.219.
`GGCG` — result for “4-mer enrichment Z-score”: 1.22.
`CUUC`: “4-mer enrichment Z-score” -1.35.
`AAAC` — result for “4-mer enrichment Z-score”: -0.00965.
`CGCU` — result for “4-mer enrichment Z-score”: -0.507.
`CUUG` — result for “4-mer enrichment Z-score”: -0.425.
`UGAA` — result for “4-mer enrichment Z-score”: 1.81.
`UGUA`: “4-mer enrichment Z-score” 0.651.
`AACC` — result for “4-mer enrichment Z-score”: -0.801.
`CUAG`: “4-mer enrichment Z-score” -0.291.
For `GGAC`, “4-mer enrichment Z-score” read -0.17.
For `CUCC`, “4-mer enrichment Z-score” read -1.3.
For `CAGA`, “4-mer enrichment Z-score” read -0.116.
For `AUAC`, “4-mer enrichment Z-score” read -0.817.
For `UUGG`, “4-mer enrichment Z-score” read 0.998.
`GACU` — result for “4-mer enrichment Z-score”: -0.383.

Study 4
Target: RNA binding protein fox-1 homolog 2, RRM domain, GST-SBP tag (RBFOX2, Homo sapiens, UniProt O43251-10, residues 100-194)
Method: RNA Bind-n-Seq
Molecule type: RNA
Sample: in vitro
Tested at: 365 nM
Notes: natural RNA segment, single round, ends assumed
Baseline: no-protein control
Direction: higher = stronger binding
Shared flanks, not repeated: GGGAGUUCUACAGUCCGACGAUC … UGGAAUUCUCGGGUGCCAA
Residues (chain): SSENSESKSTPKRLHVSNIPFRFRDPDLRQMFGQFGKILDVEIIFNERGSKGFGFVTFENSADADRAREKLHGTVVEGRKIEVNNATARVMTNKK
`UCCCUCUCCAAAUAAUACACAGAAUCCUGCAACUUUUUGCACAGCUGGUAUCUGUCUGGUAGCAGUGAGACCCCUUGUCUUGGUGAUCCUUACUGGGUUUCCAAGCAGAG`: “RBNS enrichment (R)” 0.231.
For `AAACAAAAUGUGUCCUACUUAAUUGGUAUAUGUGUUUUUCAAACAAUCAUUUGAGGGGUGUUUUGAUUUGGUUUGGUUUUUGUUUCUGUCUUUUUGGUCCAUUCAUUCAC`, “RBNS enrichment (R)” read 0.561.
`CCUUGCCCUUUGAGAGUGUCCAUUGCUGGCCAUGGUCACUAAAUUUGAAGUUCCAGUCCUCCCUUUGGAGUGGACAUUUAAAAUCUGCAGCCAUUCCUUGCUUCAGUUCC`: “RBNS enrichment (R)” 0.306.
For `GGCAUGGUAAAUAAUAUAUCAAUGUUUAUGUAGUCUGUUACAGAAACAGCUAUAGAUAACAUUAUCCAGUGAAGAGCAAAAUUCAAGCUUUAGAAAAUAUUCAUGCAUGC`, “RBNS enrichment (R)” read 0.894.
`ACAGAGUUAUUUAUUUAUAGAAAUUUUGGUACAGUGUACAUUGAAAACAUGUAAAAUAUUGAAGUGUCUAACAAAUGGCAUAAAGUGUCUUUAAUAAAGGUUCAUUUAUA` — result for “RBNS enrichment (R)”: 0.548.
`AGAGCCACGCUGCUCAGUCUGUUUCGUCAGCCGACUCAGGUUAUUUUCAGGGAAGGCAUGGAGGCAUAGUUUGGUUAGUUUCAUCACUAGGAUGUAUAAGGUGACGACAC` — result for “RBNS enrichment (R)”: 2.94.
For `CUCGUUUUCCCUGAUCCGUGGUGUUGCAGUCCGUUGUCACCAGCCUUGUUUCUAGUGUGUAUAUAUGUCGCCCCCGUGAUGCAUAUAUACACAGGUAUUAAAUAUAUCGC`, “RBNS enrichment (R)” read 0.33.
For `AUUUGAAAACUCUUUAAGUUCAUGUUAUACAAGAUGAUUUACUGUAUUAUACUUUUCCUUUUUUAUAUAAUGUCUAACAAAAAAUACAGCUGCAACAUUUUGAUUCCUGU`, “RBNS enrichment (R)” read 0.889.

Study 5
Target: RING finger protein unkempt homolog, zinc fingers 1-6, GST-SBP tag (UNK, Homo sapiens, UniProt Q9C0B0, residues 30-357)
Method: RNA Bind-n-Seq
Molecule type: RNA
Sample: in vitro
Tested at: not given
Notes: RNA with constant flanks, ends assumed
Baseline: input RNA pool
Direction: higher = stronger binding
Shared flanks, not repeated: GGGAGUUCUACAGUCCGACGAUC … CAACAGAGGAUUGAGCAUCA
Residues (chain): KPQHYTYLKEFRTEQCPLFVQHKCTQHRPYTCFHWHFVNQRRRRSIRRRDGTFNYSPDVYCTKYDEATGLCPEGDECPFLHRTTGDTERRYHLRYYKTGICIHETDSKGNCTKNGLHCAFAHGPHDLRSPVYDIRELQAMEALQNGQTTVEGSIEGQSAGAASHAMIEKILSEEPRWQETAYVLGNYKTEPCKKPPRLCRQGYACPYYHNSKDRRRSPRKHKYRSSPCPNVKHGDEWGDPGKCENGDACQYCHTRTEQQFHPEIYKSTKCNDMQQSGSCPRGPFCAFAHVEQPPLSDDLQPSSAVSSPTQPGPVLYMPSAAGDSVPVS
For `UCUUCCUCUACAGCUACAGCUUCCACACAGACGCAGCAUUCGGGAAUGUCCCCGUCACCCCGCAACAGUUAUGAUACUUCCCCACAGCCUUGCACUACCAAUCAAAAUGGGAGGGAGAAU`, the bound/input enrichment was 0.207 ratio.
`GCCCGAGGCCUGAAGGAUGCUAACCAAAUUCGAGACGAAGAGCGCGCGGGUCAAAGGCCUCCGUUUUCAUCCUAAAAGACCCUGGAUCCUGACCAGUUUACACAAUGGGGUCAUCCAGUU` has a bound/input enrichment of 0.0602 ratio.
`AUUGAGCCUGUAUUUCCAGAGAACACAGAAAACUCUGAAAAAAUAUCCUUUCAGCUUCAUUCCGCUUUAACUUCAAAUUCAUCUUGGGUUCAGUGUCCCAGCCAUUUGGAACUCAUGAAU` has a bound/input enrichment of 0.167 ratio.
For `GUGGCUGAUAUCUCUGUUGCUAAAAUAGAUCCUUUAGCACCUUUGGAUAAAGUCUGCCUUCCCGGUUGUGGCAUUUCAACCGGUUAUGGUGCUGCUGUGAACACUGCCAAGUUGGAGCCU`, the bound/input enrichment was 0.34 ratio.
`GAUACAUACUUAUUUGUGAAUCAUAUCCCUGUAAGUAAGACAAGAAACACUUCCUCAUUCCCGGUACAUAAUACACCAGCUUUAGCUUGUACCGAUUUGUGAGGUGUUAAGAUUUUGAGG` has a bound/input enrichment of 0.37 ratio.
`UUGAAAGGUAAUGGGAGCCCAGUCAAUGGGAGUUCUCAGCAGGGAACCUCAAAUCCUUCCCCCGGUUCAACUAUUCCAAGUCUUCAGAAUUCAUUAAAUGGAUCUUCUGCUGGCAGAAAG` has a bound/input enrichment of 0.21 ratio.
With `GCUCCACAGUUAGGAGGUAGCUUUGCAGUUUGGGGAGGGCUGUUUUCCAUGAUUGACUGCCGUAUGGUUCAAGUCAGAGGAAAGGAAGAUCCCUGGAACUCCAUCACAAGUGGUGCCUUA` the bound/input enrichment was 0.166 ratio.
For `GCAAUCAGGCUGUAUGAACGAGGUGACGCAUCCAAAGAAGACAUUGACACUGCUAUGAAAUCCGGAGCCGGUUACCCCAUGGGCCCAUUUGAGCUUCUAGAUUAUGUCGGACUGGAUACU`, the bound/input enrichment was 0.44 ratio.

Excerpt of the above (study 1):
With `GGTCCCGA` the E-score was -0.389.
`AGGAATCA` has an E-score of 0.161.
`ATGAGTCA` has an E-score of 0.154.
The E-score of `AGCGTCCA` is reported as -0.203.
`TATGTACA` has an E-score of 0.315.
The E-score of `CTTAGCGC` is reported as -0.261.
With `CATTTTTC` the E-score was 0.295.
`CTCAGGAA` has an E-score of -0.151.
For `ACGAACTG`, the E-score was -0.163.
